Measured values of several laboratories.
Protocols differ between the studies behind these lines. Numbers after ± are the reported error.
Cell line: HCT-116

Structure (SMILES)	assay	system	setting	IC50 [µM]
COC(=O)CNC(=O)COc1ccc2c(C)cc(=O)oc2c1	cell growth or viability, MTT	–	–	63.8
COc1ccc(NC(=O)N/N=C2\CC3(CCN(C)CC3)Oc3ccccc32)cc1	–	–	48 h	1.15 ± 0.05
Cc1cc(C)c(N[C](NCc2cccc(N[C](Nc3c(C(C)C)cccc3C(C)C)=[Pt-]([Cl])([Cl])[C]#[N+]c3c(C(C)C)cccc3C(C)C)c2)=[Au][Cl])c(C)c1	cell growth or viability	–	–	> 100
O=c1[nH]c2ccccc2nc1/C=C/C=C/c1ccccc1	cell growth or viability, MTT	–	72 h	12.7
Cc1ccc(-c2nc(SCCOC(=O)[C@]3(C)CCC[C@]4(C)c5ccc(C(C)C)cc5CCC34)nc(O)c2C#N)cc1 (some centres unmarked)	cell growth or viability, MTT	–	48 h	9.53 to 19.4
CCOC(=O)CS/C(Nc1ccccc1)=C(\C#N)C(=O)Nc1nnc(NC(=O)c2ccccc2)s1	cell growth or viability, MTT	–	48 h	63.1
COC(=O)[C@H](CC(C)C)NC(=O)CNC(=O)CCn1nc(Cc2ccccc2)c2ccccc2c1=O	cell growth or viability, MTT	–	48 h	48.7
CSC(=S)N/N=C(\C)c1ccc(S(=O)(=O)N2CCC(C)CC2)cc1	cell growth or viability, MTT	–	–	5.58
O=C(NCCCCCCCCNc1n[n+]([O-])c2ccccc2[n+]1[O-])C(F)(F)F	cytotoxicity, MTT	10% FBS medium	6 h + 18 h, hypoxia 3% O2	50.5 ± 7.1
Cc1ccc(C(C)C)cc1.[Cl][Ru]([Cl])[P](CP(c1ccccc1)c1ccccc1)(c1ccccc1)c1ccccc1	cell growth or viability, trypan blue	–	48 h	21.9
CC(=O)OC[C@H]1O[C@@H](Sc2nc3c4cnn(C(=O)CNc5ccc(C)cc5)c4ncn3n2)[C@H](OC(C)=O)[C@@H](OC(C)=O)[C@H]1OC(C)=O	cell growth or viability, MTT	–	48 h	0.007
C/C(=N\NC(N)=S)c1c(O)c2ccccc2oc1=O	cell growth or viability, MTT	–	48 h	17.8
CS/C(=N/N=C(\C)c1ccc(S(=O)(=O)N2CCC(C)CC2)cc1)SCc1ccccc1	cell growth or viability, MTT	–	–	51.8
CSc1nc(Nc2cccc(/C(C)=N/NC(=O)c3ccccc3Cl)c2)c(C#N)c(-c2ccccc2)n1	cell growth or viability, MTT	–	48 h	8.65
CCN1C(=O)CS/C1=N/N=C(\C)c1c(O)c2ccccc2oc1=O	cell growth or viability, MTT	–	48 h	10.8
N=C(N)NCCC[C@H](N)C(=O)N1CCC[C@H]1C(=O)N[C@@H](Cc1ccc(O)cc1)C(N)=O	–	–	–	> 100
CC(=O)c1ccc(NC(=O)CCc2nc3cc(Cl)ccc3[nH]c2=O)cc1	cell growth or viability, MTT	–	–	84.5
O=C(CN1C(=O)S/C(=C\c2ccccc2Br)C1=O)Nc1ccc(C(=O)Nc2ccc(F)cc2)cc1	cell growth or viability, MTT	–	–	29
Nc1ccccc1NC(=O)c1ccc(Nc2nccc(-c3cn(C4CCCCC4)nn3)n2)cc1	cell growth or viability, SRB	–	72 h	2.13
CCCCc1ccc(C(=O)O[C@H]2[C@H](C)O[C@@H](O[C@H]3[C@H](N(C)C)[C@@H](O)[C@H](O[C@H]4[C@@H](CC=O)C[C@@H](C)[C@@H](O[C@H]5CC[C@H](N(C)C)[C@@H](C)O5)/C=C/C=C/C[C@@H](C)OC(=O)C[C@@H](O)[C@@H]4OC)O[C@@H]3C)C[C@@]2(C)O)cc1	cell growth or viability, CCK-8	–	72 h	3.51
Cc1c(C)c(C)[c-](C)c1C.O=Cc1c[c-]c(-c2ccccn2)cc1.[Cl-].[Ir+3]	SRB	–	24 h, 72 h recovery	21.3 ± 0.7
O=C(NCCCCCNc1n[n+]([O-])c2ccccc2[n+]1[O-])C(F)(F)F	cytotoxicity, MTT	–	24 h, hypoxia	44.1

Structure (SMILES)	assay	system	setting	IC50 [µM]
NC1=N[N+](=Cc2c3ccccc3cc3ccccc23)[Ga-3]23([S]1)([S]C(N)=N[N+]2=Cc1c2ccccc2cc2ccccc12)[S]C(N)=N[N+]3=Cc1c2ccccc2cc2ccccc12	–	–	48 h	17.7 ± 2.2
N#Cc1c(F)c(F)c2nc(SCc3ccc4ccccc4c3)nc(N)c2c1F	cell growth or viability, MTT	–	96 h	3.84
CC1CNCCN1C(=O)c1cn(C23CCCC(C)(CCC4C2CC4(C)C)C3)nn1 (centres unmarked)	cell growth or viability, CCK-8	–	72 h	13.2
Cn1[c]([Ir-3]234([NH3+])[n]5c6ccc5C(c5c(F)c(F)c(F)c(F)c5F)=C5C=CC(=[N+]52)C(c2c(F)c(F)c(F)c(F)c2F)=c2ccc([n]23)=C(c2c(F)c(F)c(F)c(F)c2F)C2=[N+]4C(=C6c3c(F)c(F)c(F)c(F)c3F)C=C2)[n+](C)c2ccccc21.F[P-](F)(F)(F)(F)F	cell growth or viability, MTT	–	72 h	0.42
O=C(NCCCCCCCNc1n[n+]([O-])c2ccccc2[n+]1[O-])C(F)(F)F	cytotoxicity, MTT	10% FBS medium	6 h + 18 h, hypoxia 3% O2	47.9 ± 3.7
CCCCSc1nc(N)c2c(F)c(C#N)c(F)c(Cl)c2n1	cell growth or viability, MTT	–	96 h	16
COC(=O)CCNC(=O)CNC(=O)CCn1nc(Cc2ccccc2)c2ccccc2c1=O	cell growth or viability, MTT	–	48 h	0.32
CSc1nc(Nc2ccc(/C(C)=N/NC(=O)c3ccccc3)cc2)c(C#N)c(-c2ccccc2)n1	cell growth or viability, MTT	–	48 h	23.6
CC(C)c1ccc2c(c1)CCC1[C@](C)(C(=O)OCCSc3nc(O)c(C#N)c(-c4ccccc4F)n3)CCC[C@]21C (some centres unmarked)	cell growth or viability, MTT	–	48 h	9.53 to 19.4
Cc1cc(C)c([N+]#[C][Pd-]([Cl])([Cl])=[C](Nc2ccc(CN[C](NC(C)(C)C)=[Au][Cl])cc2)Nc2c(C)cc(C)cc2C)c(C)c1	cell growth or viability	–	–	> 100
N#Cc1c(F)c(Cl)c2nc(SCc3ccc4ccccc4c3)nc(N)c2c1F	cell growth or viability, MTT	–	96 h	5.63
COc1ccc2c(c1)OCc1c-2oc2cc3c(cc12)OCO3	cell growth or viability, MTT	–	72 h	27
COc1cc(C2COc3cc(O)cc(O)c3C2=NO)c(OC)cc1O (centres unmarked)	cell growth or viability, MTT	–	72 h	82.6
COc1cccc2cc(C(=O)NNC(N)=S)c(=O)oc12	cell growth or viability, SRB	–	72 h	36.2
COC(=O)Cn1c(=O)c(Cc2ccccc2)nc2ccccc21	cell growth or viability, MTT	–	72 h	0.438
Cc1cc(C)c([N+]#[C][Pd-]([Cl])([Cl])=[C](Nc2cccc(CN[C](Nc3c(C(C)C)cccc3C(C)C)=[Au][Cl])c2)Nc2c(C)cc(C)cc2C)c(C)c1	cell growth or viability	–	–	7.2
CN1CCCC1CS(=O)(=O)NC12CCCC(C)(CCC3C1CC3(C)C)C2 (centres unmarked)	cell growth or viability, CCK-8	–	72 h	34.6
CO[C@@H]1[C@@H](O[C@@H]2O[C@H](C)[C@@H](O[C@H]3C[C@@](C)(O)[C@@H](OC(=O)c4ccc(C(C)(C)C)cc4)[C@H](C)O3)[C@H](N(C)C)[C@H]2O)[C@@H](CC=O)C[C@@H](C)[C@@H](O[C@H]2CC[C@H](N(C)C)[C@@H](C)O2)/C=C/C=C/C[C@@H](C)OC(=O)C[C@H]1O	cell growth or viability, CCK-8	–	72 h	4.78
CC(C)c1cccc(C(C)C)c1N=[C](NCc1ccc(N)cc1)[AuH][Cl]	cell growth or viability	–	–	> 100
COc1cccc2c(=O)c3c(NCCCCCCC(=O)Nc4ccccc4N)ccc([N+](=O)[O-])c3[nH]c12	cell growth or viability, MTT	–	72 h	21.1
CC(C)c1cccc(C(C)C)c1[N+]#[C][Pd-]([Cl])([Cl])=[C](Nc1ccc(CN[C](Nc2c(C(C)C)cccc2C(C)C)=[Au][Cl])cc1)Nc1c(C(C)C)cccc1C(C)C	cell growth or viability	–	–	0.3
CCN1CCC2(CC1)C/C(=N\NC(=O)Nc1ccc(C)cc1)c1ccccc1O2	–	–	48 h	21.3 ± 0.91

A few entries again:
Structure (SMILES)	assay	system	setting	IC50 [µM]
O=C(NCCCCCCCCNc1n[n+]([O-])c2ccccc2[n+]1[O-])C(F)(F)F	cytotoxicity, MTT	10% FBS medium	6 h + 18 h, hypoxia 3% O2	50.5 ± 7.1
Cc1ccc(C(C)C)cc1.[Cl][Ru]([Cl])[P](CP(c1ccccc1)c1ccccc1)(c1ccccc1)c1ccccc1	cell growth or viability, trypan blue	–	48 h	21.9
CC(=O)OC[C@H]1O[C@@H](Sc2nc3c4cnn(C(=O)CNc5ccc(C)cc5)c4ncn3n2)[C@H](OC(C)=O)[C@@H](OC(C)=O)[C@H]1OC(C)=O	cell growth or viability, MTT	–	48 h	0.007
C/C(=N\NC(N)=S)c1c(O)c2ccccc2oc1=O	cell growth or viability, MTT	–	48 h	17.8
CS/C(=N/N=C(\C)c1ccc(S(=O)(=O)N2CCC(C)CC2)cc1)SCc1ccccc1	cell growth or viability, MTT	–	–	51.8
